Results from different studies.
Compare with care: the assays were run in different laboratories.
Cell line: NCI-H226

CCCN1CCN(c2ccc3[nH]c(-c4ccc5[nH]c(-c6ccc(OCC)c(OCC)c6)nc5c4)nc3c2)CC1
growth percent (cell growth, NCI-60 SRB; 10 µM): -58.2%

Cc1n[nH]c2nc(-c3ccc(Cl)cc3)c3c(NC(=O)c4ccccc4)nnc-3n12
cell growth (SRB; 10 µM, NCI60 single-dose screen; baseline: untreated): 107%

Cc1cc(C)n(C(=S)[S][Au][PH](CCCCCC[PH]([Au][S]C(=S)n2nc(C)cc2C)(c2ccccc2)c2ccccc2)(c2ccccc2)c2ccccc2)n1
log10 TGI (cell growth, NCI-60 screen; non-small cell lung cancer): > -4

[Br-].c1ccc2cc(Cn3c[n+](Cc4ccc5ccccc5c4)c4ccccc43)ccc2c1
TGI (NCI60 five-dose screen): 3.25 µM

Cn1cncc1C1=CN(c2ncnc3[nH]cnc23)CCS1
TGI (lung cancer): 110 µM

C#C[C@@]1(O)[C@@H](CO)O[C@@H](n2ccc3c(N)ncnc32)[C@@H]1O
TGI (SRB; NCI-60 screen): 4.85 µM

O=C(Nc1nnc2n3c(=S)[nH][nH]c3nc(-c3ccc(Cl)cc3)c1-2)c1ccccc1
cell growth (SRB; 10 µM, NCI60 single-dose screen; baseline: untreated): 106%

CCN(CC)c1ccc(C=NNC(=O)CSc2nc3ccccc3c(=O)n2Cc2ccc(S(N)(=O)=O)cc2)c(O)c1
TGI (NCI five-dose screen): > 100 µM

O=C(Nc1nnc2[nH]c(=S)[nH]c(-c3ccc(Cl)cc3)c1-2)c1ccccc1
cell growth (SRB; 10 µM, NCI60 single-dose screen; baseline: untreated): 85.2%

O=C(/C=C/C=C/C=C/C1CCCCC1)NC1=C[C@@](O)(/C=C/C=C/C=C/C(=O)NC2=C(O)CCC2=O)[C@@H]2O[C@@H]2C1=O
GI50 (cell growth, CellTiter-Glo; 78 h): 18.5 µM

O=C(Nc1nnc2n3c(Cc4ccccc4)n[nH]c3nc(-c3ccc(Cl)cc3)c1-2)c1ccccc1
cell growth (SRB; 10 µM, NCI60 single-dose screen; baseline: untreated): 94%

CCCCN1CCN(c2ccc3[nH]c(-c4ccc5[nH]c(-c6ccc(OCC)c(OCC)c6)nc5c4)nc3c2)CC1
growth percent (cell growth, NCI-60 SRB; 10 µM): 16.2%

CCCCCCCCCCCCCCCCCCOc1ccc(CC(=O)OCC[N+]2(C)CCCCC2)cc1
growth inhibition (SRB; 10 µM): < 0%

CCOc1ccc(-c2nc3cc(-c4nc5cc(N6CCN(C)CC6)ccc5[nH]4)ccc3[nH]2)cc1OCC
growth percent (cell growth, NCI-60 SRB; 10 µM): -8.92%

NNc1nc(-c2ccc(Cl)cc2)c2c(NC(=O)c3ccccc3)nnc-2[nH]1
cell growth (SRB; 10 µM, NCI60 single-dose screen; baseline: untreated): 109%

Cc1cc2c(cc1C)[n+](Cc1ccc3ccccc3c1)cn2Cc1ccc2ccccc2c1.[Br-]
TGI (NCI60 five-dose screen): 3.42 µM

A few entries again:
CCOc1ccc(-c2nc3cc(-c4nc5cc(N6CCN(C)CC6)ccc5[nH]4)ccc3[nH]2)cc1OCC
growth percent (cell growth, NCI-60 SRB; 10 µM): -8.92%
